Results pooled from the literature.
Protocols differ between the studies behind these lines. ± marks the error that the study gave.
APP: Amyloid-beta precursor protein (APP, Homo sapiens, UniProt P05067)
Sequence of UniProt P05067 (whole entry, looked up): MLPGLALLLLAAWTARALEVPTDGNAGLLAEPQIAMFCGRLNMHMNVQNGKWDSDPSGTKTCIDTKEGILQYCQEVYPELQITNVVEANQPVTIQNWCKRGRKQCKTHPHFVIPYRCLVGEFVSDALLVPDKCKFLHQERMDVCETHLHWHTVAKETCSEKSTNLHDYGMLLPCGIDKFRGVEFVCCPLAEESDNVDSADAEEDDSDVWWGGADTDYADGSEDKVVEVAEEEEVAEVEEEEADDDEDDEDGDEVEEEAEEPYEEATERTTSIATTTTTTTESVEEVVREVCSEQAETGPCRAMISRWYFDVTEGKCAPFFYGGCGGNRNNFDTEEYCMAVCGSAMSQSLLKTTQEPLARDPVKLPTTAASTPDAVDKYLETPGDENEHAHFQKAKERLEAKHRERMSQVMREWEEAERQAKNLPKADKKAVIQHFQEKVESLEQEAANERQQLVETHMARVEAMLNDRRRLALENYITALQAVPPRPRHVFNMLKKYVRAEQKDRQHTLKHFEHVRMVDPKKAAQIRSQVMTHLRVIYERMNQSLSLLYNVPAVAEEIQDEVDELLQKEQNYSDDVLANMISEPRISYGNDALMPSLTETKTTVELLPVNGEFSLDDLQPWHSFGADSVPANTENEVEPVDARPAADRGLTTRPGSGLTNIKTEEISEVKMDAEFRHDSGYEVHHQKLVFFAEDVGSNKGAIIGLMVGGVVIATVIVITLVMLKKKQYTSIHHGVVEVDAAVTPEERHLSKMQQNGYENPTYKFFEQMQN
APP Aβ42 fibrils: Amyloid-beta precursor protein, Aβ42 fibrils (APP, Homo sapiens, UniProt P05067)
APP Aβ40 fibrils: Amyloid-beta precursor protein, Aβ40 fibrils (APP, Homo sapiens, UniProt P05067)

SMILES	target	assay	system	setting	quantity	value
COc1cc(/C=C/c2cc(-[c-]3cccc3)n(C(=O)c3ccccc3)n2)ccc1O.[Fe+2].c1cc[cH-]c1	APP	amyloid aggregation, inhibitor, fluorescence	–	pH 6.9	IC50	23.5 µM
COc1cc(-c2nc3ccccc3s2)cc(CN2CCN(C)CCN(Cc3cc(-c4nc5ccccc5s4)cc(OC)c3O)CC2)c1O	APP	ligand displacement, fluorescence	–	–	Ki	1.3 µM
[Cu+].c1cc2nc(c1)CSCc1cc(-c3nc4ccccc4s3)cc(n1)CSC2	APP Aβ42 fibrils	amyloid-beta 42 binding, thioflavin T competition	–	pH 7.4	Ki	0.84 ± 0.13 µM
CCCC[C@@H]1NC(=O)[C@@H](CC(C)C)NC(=O)[C@H](CCCCN)NC(=O)[C@@H](CO)NC(=O)[C@H](Cc2c[nH]cn2)NC(=O)[C@@H](Cc2c[nH]c3ccccc23)NC1=O	Amyloid-beta precursor protein, Aβ42 (APP, Homo sapiens, UniProt P05067)	binding, surface plasmon resonance	PBS-T, 1% DMSO	25 °C	Kd	4 µM
Clc1ccc2c(c1)N(CCCN1CCN(CCn3cc(CN4CCCNCCN(Cc5cn(CCN6CCN(CCCN7c8ccccc8Sc8ccc(Cl)cc87)CC6)nn5)CCCNCC4)nn3)CC1)c1ccccc1S2.[Cu+2].[O-][Cl+3]([O-])([O-])[O-].[O-][Cl+3]([O-])([O-])[O-]	APP	binding, NMR	–	–	Kd	3.7 µM
COc1cc(-c2nc3ccccc3s2)cc(CN2CCN(C)CCN(C)CC2)c1O	APP Aβ40 fibrils	amyloid-β fibril binding, direct fluorescence	–	Aβ 5 µM	Kd	0.58 µM
[Cu+2].c1cc2nc(c1)CSCc1cccc(n1)CSC2	APP Aβ42 fibrils	amyloid-beta 42 binding, thioflavin T competition	–	pH 7.4	Ki	4.07 ± 2.13 µM
COc1cc(/C=C/C(=O)C2=C(/C=C/c3ccc(O)c(OC)c3)NC(=O)NC2[c-]2cccc2)ccc1O.[Fe+2].c1cc[cH-]c1 (racemic)	APP Aβ40 fibrils	amyloid fibril disassembly, thioflavin T fluorescence	–	24 h, 37 °C, with: 25 µM amyloid-beta	DC50	8.7 ± 0.8 µM
CC(C)(C)N1Cc2cccc(n2)CN(C(C)(C)C)Cc2cc(-c3nc4ccccc4s3)cc(n2)C1.[Cu+2]	APP Aβ42 fibrils	amyloid-beta 42 binding, thioflavin T competition	–	pH 7.4	Ki	0.62 ± 0.17 µM
COc1cc(/C=C/c2n[nH]c(-[c-]3cccc3)c2C)ccc1O.[Fe+2].c1cc[cH-]c1	APP Aβ40 fibrils	amyloid fibril disassembly, thioflavin T fluorescence	–	24 h, 37 °C, with: 25 µM amyloid-beta	DC50	10.8 ± 0.7 µM
COc1cc(-c2nc3ccccc3s2)cc(CN2CCNCCN(Cc3cc(-c4nc5ccccc5s4)cc(OC)c3O)CC2)c1O	APP	ligand displacement, fluorescence	–	–	Ki	0.29 µM
COc1cc(C=Cc2cc(-[c-]3cccc3)n(C(=O)[c-]3cccc3)n2)ccc1O.[Fe+2].[Fe+2].c1cc[cH-]c1.c1cc[cH-]c1	APP Aβ40 fibrils	amyloid fibril disassembly, thioflavin T fluorescence	–	24 h, 37 °C, with: 25 µM amyloid-beta	DC50	70 ± 7 µM
COc1cc(-c2nc3ccccc3s2)cc(CN2CCN(CC(=O)O)CCN(Cc3cc(-c4nc5ccccc5s4)cc(OC)c3O)CC2)c1O	APP	ligand displacement, fluorescence	–	–	Ki	0.55 µM

Repeated from above:
SMILES	target	assay	system	setting	quantity	value
[Cu+2].c1cc2nc(c1)CSCc1cccc(n1)CSC2	APP Aβ42 fibrils	amyloid-beta 42 binding, thioflavin T competition	–	pH 7.4	Ki	4.07 ± 2.13 µM
